Measurements from different studies.
Every numbered part comes from another study and shows a few of its results, in no order.

Sample 1
Target: RNA binding protein fox-1 homolog 2, RRM domain, GST-SBP tag (RBFOX2, Homo sapiens, UniProt O43251-10, residues 100-194)
Technique: RNA Bind-n-Seq
Form: RNA
Sample: in vitro
Concentration: 365 nM
Setting: natural RNA segment, single round, ends assumed
Relative to: no-protein control
Reading: higher = stronger binding
Construct (chain): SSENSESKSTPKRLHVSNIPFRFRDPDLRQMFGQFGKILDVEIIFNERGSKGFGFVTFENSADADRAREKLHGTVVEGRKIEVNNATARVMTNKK
`GGGAGUUCUACAGUCCGACGAUCGGCUUCCUUUCAGUACAGUAAAAGUCCCUCCCUAUGGGCCAGACUUGAUAAUAGUAGGUGAAGGUUCUGGAGGCCUUUACCAGGACAGAGCUAGAAUCGAGCCAGUAAACUGGAAUUCUCGGGUGCCAA` — result for “RBNS enrichment (R)”: 0.315.
Under “RBNS enrichment (R)”, `GGGAGUUCUACAGUCCGACGAUCAGCUGAUGUGAAUCCAUCCAGGGCCUAGGUAGAUUGGUAAGUCAGGAAACAGCCCAUGGGGUUCAGCUCUGCAUCCUCCUCUUUAAGUGAAUUAAAGUGGUUUUCCCAGAUGGAAUUCUCGGGUGCCAA` is recorded as 0.301.
For `GGGAGUUCUACAGUCCGACGAUCUAGUGAAAUUGUAUCUCAUAUUAACAUUUCAAAUGCUCAUAUUGAAAAUGGAAAAUAGUAAACACGGGAAUUGAUUUUAUUCUGGUUGUCUAUAAUACUUCAUUUUAAAUUGGAAUUCUCGGGUGCCAA`, “RBNS enrichment (R)” read 0.437.
For `GGGAGUUCUACAGUCCGACGAUCAAUUUCAAUAUGUUUAUACUGGUGACUUUUAAGUCAUCUUGUAUUAUCCUGGGUAGGGUGAAAACCCUCAAGUAGUAUUUUUAUGAGCCUGGCAUGGUGAUAUAACUGAAUGGAAUUCUCGGGUGCCAA`, “RBNS enrichment (R)” read 0.907.

Sample 2
Target: Interferon regulatory factor 7, full length, phosphomimetic (IRF7, Homo sapiens, UniProt Q92985, residues 1-503, S471D/S472D/S475D/S476D/S477D/S483D/S484D/S487D)
Sequence of UniProt Q92985 (whole entry, unmodified, looked up): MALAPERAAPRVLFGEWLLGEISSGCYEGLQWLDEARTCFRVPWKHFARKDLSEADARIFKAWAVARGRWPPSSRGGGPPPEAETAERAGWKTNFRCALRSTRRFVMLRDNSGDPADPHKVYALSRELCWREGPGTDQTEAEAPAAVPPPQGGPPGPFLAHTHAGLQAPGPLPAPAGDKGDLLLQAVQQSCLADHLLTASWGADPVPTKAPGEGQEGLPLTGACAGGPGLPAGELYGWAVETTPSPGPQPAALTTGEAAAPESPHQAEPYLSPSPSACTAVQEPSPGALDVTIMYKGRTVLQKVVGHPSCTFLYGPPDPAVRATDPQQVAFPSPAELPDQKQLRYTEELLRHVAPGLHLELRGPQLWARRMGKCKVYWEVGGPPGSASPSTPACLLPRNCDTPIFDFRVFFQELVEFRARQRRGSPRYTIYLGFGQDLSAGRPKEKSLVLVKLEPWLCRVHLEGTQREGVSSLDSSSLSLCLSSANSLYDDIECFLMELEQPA
Technique: protein-binding microarray
Form: double-stranded DNA, one strand shown
Sample: in vitro
Concentration: 2200 nM top
Setting: 60-bp whole probe
Together with: salmon DNA 0.4 mg/ml
Relative to: random background probes
Reading: higher = stronger binding
`GCCTAGCACTTAGGTCTCCATTTCCTTTAGTGCTAGGTCTTGATTCGCTTGACGCTGCTG`: “fitted relative affinity” 1.56 z-score.
`GCCTAGCACCTTTTTTTTTTTTTCTGATCGTGCTAGGTCTTGATTCGCTTGACGCTGCTG`: “fitted relative affinity” 3.06 z-score.
`GCCTAGCACTTAGGTATCCTTTTCCTTTCGTGCTAGGTCTTGATTCGCTTGACGCTGCTG`: “fitted relative affinity” 3.12 z-score.
`GCCTAGCACGACGGTGTCGGTTCCGGGACGTGCTAGGTCTTGATTCGCTTGACGCTGCTG` — result for “fitted relative affinity”: -0.2 z-score.

Sample 3
Target: Histone acetyltransferase KAT6A, both winged helices, GST fusion (KAT6A, Homo sapiens, UniProt Q92794, residues 1-181)
Technique: protein binding microarray
Form: double-stranded DNA, one strand shown
Sample: in vitro
Concentration: not given
Setting: 8-mer, flanks averaged, mean of 2 arrays, mostly near background
Relative to: not given
Reading: higher = stronger binding
Target sequence (chain): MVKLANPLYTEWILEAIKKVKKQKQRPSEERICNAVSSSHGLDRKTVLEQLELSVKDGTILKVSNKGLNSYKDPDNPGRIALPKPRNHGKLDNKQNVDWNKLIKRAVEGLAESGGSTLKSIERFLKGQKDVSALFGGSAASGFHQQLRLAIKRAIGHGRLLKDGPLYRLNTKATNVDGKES
`AGCACTGG` gave an E-score of -0.227.
The E-score of `CTCTTGTA` is reported as -0.205.
The E-score of `TAATTACA` is reported as -0.136.
The E-score of `CAGTGTGA` is reported as -0.233.
`GATGCCTA` has an E-score of -0.187.

Single results of other studies
`PhoQ, residues 284 288 289 292 302 303 NLSRDF` has a fold induction of 1.2 (PhoP, residues 12 14 15 18 19 IFFTR (Escherichia coli, UniProt P23836); Sort-seq, refers to: YFP reporter; E. coli; PhoQ-PhoP variant library, together with: 10 µM Mg2+; relative to: high Mg2+ state, higher = stronger signaling).

A few entries again (sample 3):
`AGCACTGG` gave an E-score of -0.227.
The E-score of `CAGTGTGA` is reported as -0.233.
